# Published values gathered from unrelated publications.
# Several values in a cell are separate wells, animals, samples, runs or records. ± gives the spread as reported.
Compound,assay,system,conditions,how to read,endpoint,value
[Cu+2].c1cnc2c(c1)c1nccnc1c1cccnc12.c1cnc2c(c1)c1nccnc1c1cccnc12,oxidative DNA cleavage,supercoiled pUC19 DNA,"100 µM, 30 min, with: ascorbic acid 50 µM, DNA 40 µM",,supercoiled DNA form,6%
COc1ccccc1-c1n[nH]c2nc(N[C@H]3CC[C@H](NS(=O)(=O)CC(C)C)CC3)ncc12,"bead binding, competition bead pull-down, refers to: LINJ.29.1250",Leishmania donovani extract,10 µM,baseline: vehicle,relative abundance,0.87
Cc1ccc(S(=O)(=O)N2CC2C(=O)N(C)C)cc1 (stereo not drawn),,"mouse, Lewis lung carcinoma","intraperitoneal, 170 mg/kg, 16 doses, day 13",,tumour growth inhibition,37%
CC(=O)N1c2ccc(-c3ccc(CNC(=O)c4cn5cc(-c6cnc(N)nc6)nc(N6CCOCC6)c5n4)cc3)cc2CC[C@@H]1C,,mice with transplanted Eµ-Myc lymphoma,"35 mg/kg, 15 d dosing",,median overall survival,45 days
CCN(Cc1ccccc1)C(=O)CCc1nc(CN2CCN(C(=O)Cc3ccc(OC)c(OC)c3)CC2)no1,beam walking test,mouse CCI model,"5 mg/kg, unit not given",lower is better,foot slips,1.83 ± 0.36
CC(C)C[C@@H]1NC(=O)[C@@H](Cc2c[nH]c3ccccc23)NC(=O)[C@H](CCCNC(=N)N)NC(=O)[C@@H](CCC(=O)O)NC(=O)[C@H](CCC(N)=O)NC(=O)[C@@H](CCC(=O)O)NC(=O)[C@H](CCCNC(=N)N)NC(=O)[C@@H](Cc2c[nH]c3ccccc23)NC1=O,,"male LDLr-/- mouse, Western diet","dose not given, 2 weeks",,plasma triglyceride level,decreased
CC(C)C[C@H](NC(=O)[C@H](Cc1ccccc1)NC(=O)[C@H](C)NC(=O)[C@@H](CS)NC(=O)CNC(=O)[C@H](N)CO)C(=O)N[C@@H](CO)C(=O)N[C@H](C(=O)N[C@@H](CCCCN)C(=O)N[C@@H](CCCCN)C(=O)N[C@@H](CCC(N)=O)C(=O)N[C@@H](Cc1ccccc1)C(=O)N[C@@H](CCC(=O)O)C(=O)N[C@@H](CCC(=O)O)C(=O)N[C@@H](CC(C)C)C(=O)N[C@H](C(=O)N[C@@H](CC(C)C)C(=O)NCC(=O)N[C@@H](CCC(=O)O)C(=O)N[C@@H](Cc1ccccc1)C(=O)N[C@@H](CC(C)C)C(=O)N[C@H](CCCCN)C(=O)N[C@H](CC(C)C)C(=O)N[C@H](CC(=O)O)C(=O)N[C@@H](CCCNC(=N)N)C(=O)N[C@H](CCCNC(=N)N)C(=O)N[C@@H](CCCNC(=N)N)C(=O)N[C@@H](CCCCN)C(=O)O)[C@@H](C)O)C(C)C,"immunoblot, refers to: SMAC, survivin (BIRC5)","mouse A549 xenograft, tumour","intravenous, dose not given",,SMAC and survivin expression,decreased
O=C(O)c1ccc(-c2nc(-c3ccccc3Cl)c3sccn23)cc1,,"C57BL/6 mice, 5-fluorouracil treated","dose not given, day 10",baseline: RBC,reticulocytes,19.9% and 11.1% and 17.2% and 22.1%
Cc1cc(O)cc(C)c1C[C@H](N)C(=O)N[C@H](CCCNC(=N)N)C(=O)N[C@@H](Cc1ccccc1)C(=O)N[C@@H](CCCCN)C(=O)NCCCCCCCCCCCCNC(=O)[C@H](Cc1ccccc1)NC(=O)[C@H](CC1CCCCC1)NC[C@@H]1Cc2ccccc2CN1C(=O)[C@@H](N)Cc1ccc(O)cc1,"µ-opioid receptor antagonism, antagonist",guinea pig ileum,,,Ke,7.65 ± 0.08 µM
Cc1ccc(C2=CC(C)(C)Oc3ccc(-c4ccc(-c5ccc(C(=O)O)cc5)[nH]4)cc32)cc1,,"CD1 mouse, male","20 mg/kg, 1 day after treatment, dosed for 2 weeks",,testis weight,0.0692 g and 0.0925 g and 0.118 g and 0.0776 g and 0.0761 g
c1c[nH]c(CNCc2cc(CNCc3ccc[nH]3)cc(-c3cc(CNCc4ccc[nH]4)cc(Cn4cc(COCCOCCOCCOCCOCc5cn(Cc6cc(CNCc7ccc[nH]7)cc(-c7cc(CNCc8ccc[nH]8)cc(CNCc8ccc[nH]8)c7)c6)nn5)nn4)c3)c2)c1,,"hACE2 mice, bronchoalveolar lavage fluid",dose not given,baseline: control,IL-18 level,decreased
CCCCCCCCCCCC1CC(=O)NC(CC(N)=O)C(=O)NC(Cc2ccc(O)cc2)C(=O)NC(CC(N)=O)C(=O)NC(CCC(N)=O)C(=O)N2CCCC2C(=O)NC(CC(N)=O)C(=O)NC(CO)C(=O)N1 (stereo not drawn),calcein leakage,DOPC/DOPG/CHOL liposomes,"concentration not given, with: 40 mM CaCl2",,maximum fusion,48 ± 10%
CC(C)[C@@H]1NC(=O)[C@@H]2CCCN2C(=O)[C@@H](C(C)C)NC(=O)[C@H]2CCCN2C(=O)[C@H](C(C)C)NC(=O)[C@@H]2CCCN2C(=O)[C@@H](C(C)C)NC(=O)[C@H]2CCCN2C(=O)[C@H](C(C)C)NC(=O)[C@@H]2CCCN2C(=O)[C@@H](C(C)C)NC(=O)[C@H]2CCCN2C1=O,,sheep lipid bilayer,"10 µM, pH 7.4, 23 °C, with: 0.1 M K+ vs Cs chloride",,bi-ionic potential,-22 mV
CCCC[C@@H]1NC(=O)[C@H](Cc2ccc(O)cc2)NC(=O)[C@@H]2CCCN2C(=O)[C@H](CC(=O)O)NC(=O)[C@H](C)NC(=O)[C@H](Cc2ccccc2)NC(=O)[C@@H]2CSCCC(=O)N3CN(CN(C3)C(=O)CCSC[C@@H](C(=O)N[C@@H](C)C(N)=O)NC1=O)C(=O)CCSC[C@H](NC(C)=O)C(=O)N[C@@H](CC(C)(C)C)C(=O)N1CCC[C@H]1C(=O)N[C@@H](CCC(=O)O)C(=O)N[C@H](CCCCNC(=O)CCc1cn(CCOCCOCCOCCN(CCOCCOCCOCCC(=O)N[C@H]3CSCCC(=O)N4CN5CN(C4)C(=O)CCSC[C@H](NC(=O)[C@@H](CC(=O)O)NC(=O)[C@H](Cc4cccc6ccccc46)NC(=O)[C@@H]4CCCN4C3=O)C(=O)N[C@@H](CCSC)C(=O)N[C@@H](CCCCNC(=N)N)C(=O)N[C@@H](CC(=O)O)C(=O)N[C@@H](Cc3c[nH]c4ccccc34)C(=O)N[C@@H](CO)C(=O)N[C@@H]([C@@H](C)O)C(=O)N3CCC[C@H]3C(=O)N3C[C@H](O)C[C@H]3C(=O)N[C@@H](Cc3c[nH]c4ccccc34)C(=O)N[C@H](C(N)=O)CSCCC5=O)CCOCCOCCOCCn3cc(CCC(=O)NCCCC[C@H]4NC(=O)[C@H](CCC(=O)O)NC(=O)[C@@H]5CCCN5C(=O)[C@H](CC(C)(C)C)NC(=O)[C@@H](NC(C)=O)CSCCC(=O)N5CN6CN(C5)C(=O)CCSC[C@H](NC(=O)[C@H](Cc5ccc(O)cc5)NC(=O)[C@@H]5CCCN5C4=O)C(=O)N[C@@H](Cc4ccccc4)C(=O)N[C@@H](C)C(=O)N[C@@H](CC(=O)O)C(=O)N4CCC[C@H]4C(=O)N[C@@H](Cc4ccc(O)cc4)C(=O)N[C@@H](CCCC)C(=O)N[C@H](C(=O)N[C@@H](C)C(N)=O)CSCCC6=O)nn3)nn1)C(=O)N1CCC[C@H]1C(=O)N[C@@H](Cc1ccc(O)cc1)C(=O)N2,"NanoString, refers to: Thbd-mRNA","mouse bearing MC38-Nectin-4 tumour, circulating white blood cells","5 mg/kg, 24 h after dosing, unit not given",baseline: vehicle,mRNA level,0.461
COc1ccccc1-c1n[nH]c2nc(NC3CCN(C(=O)Cc4ccc(F)cc4F)CC3)ncc12,"bead binding, competition bead pull-down, refers to: LINJ.35.4500",Leishmania donovani axenic amastigote extract,10 µM,baseline: vehicle,relative abundance,0.94
O=[N+]([O-])[O-].O=c1c(C=NN=C([S-])Nc2ccccc2)coc2ccccc12.[Cu+2].c1cnc2c(c1)c1nccnc1c1cccnc12,DNA cleavage,supercoiled pUC19 DNA,"100 µM, 4 h, 37 °C, no reducing agent, with: DNA 40 µM",,supercoiled DNA form,84%
CCc1nnc(-c2c(OC)cc(-c3cnc4cc(-c5cnn(C)c5)ccn34)cc2OC)o1,histomorphometry,"male C57BL/6J mouse, tibia","oral gavage, 10 mg/kg once daily, 3 wk",,osteoclast surface/bone surface,16.5 ± 1.42%
CCCCCC1=C(NCC)C(=O)C(C/C=C(\C)CCC=C(C)C)=C(O)C1=O,"GSEA of striatal RNA-Seq, refers to: HALLMARK_MYC_TARGETS_V2","lesioned A53T mice, striatum",dose not given,"baseline: A53T mice, direction not given",normalized enrichment score,-1.68
